Experimental data collected from several papers.
Lines come from different studies, so protocols differ. ± gives the spread as reported.

SMILES | cell line | test | system | setting | IC50 [µM]
COc1c(O)cc2oc3cc(O)c(CCC(C)C)c(O)c3c(=O)c2c1CCC(C)C | SMMC-7721 | cell growth or viability |  | 48 h | 15.7
CN1CCN(c2ccc(Nc3ncc(Cl)c(Nc4ccccc4P(C)(C)=O)n3)cc2Br)CC1 | BaF3 EGFR 19del/T790M/C797S | cell growth, inhibitor, CCK-8 |  | 72 h | 0.09
N#Cc1cccc(-c2ccc(=O)n(Cc3cccc(-c4ncc(OCC5CCN(CC(=O)NCCOCCOCCOCCNc6ccc7c(c6)C(=O)N(C6CCC(=O)NC6=O)C7=O)CC5)cn4)c3)n2)c1 (stereo not shown) | EBC-1 | cell growth or viability, CCK-8 |  | 72 h | 0.00461
NCCNC(=O)c1ccc2[nH]c(C(=O)c3ccc(O)cc3)nc2c1 | NCI-H441 | cell growth or viability, ATP luminescence |  | 72 h | > 300
Cc1ccc(C(=O)C2Sc3nnc(-n4nc(C)cc4C)n3NC2c2ccc(Cl)cc2)cc1 (racemic) | DND41 | cell growth or viability, imaging |  | 72 h | > 100
CCCCNC(=O)O[C@H]1[C@H](C)O[C@@H](O[C@H]2[C@H](N(C)C)[C@@H](O)[C@H](O[C@H]3[C@@H](CC=O)C[C@@H](C)[C@@H](O[C@H]4CC[C@H](N(C)C)[C@@H](C)O4)/C=C/C=C/C[C@@H](C)OC(=O)C[C@@H](O)[C@@H]3OC)O[C@@H]2C)C[C@@]1(C)O | GES1 | cell growth or viability, CCK-8 |  | 72 h | > 50
COc1c(O)cc2oc3c(Br)c(O)c(CC=C(C)C)c(O)c3c(=O)c2c1CC=C(C)C | SMMC-7721 | cell growth or viability |  | 48 h | 24.1
O=C(CCCCC1SCC2NC(=O)NC21)NCCCCC1CNC(=O)C(=O)N1CC1CCCN1CC(CC1CCCCC1)N1CC(Cc2ccc(O)cc2)N(CCc2ccccc2)C(=O)C1=O (stereo not shown) | WM 266-4 | cell growth or viability, ATP luminescence |  | 72 h | > 100
COCCOc1ccc(-c2ccc3[nH]c4ncc(/C=C/c5ccccc5)cc4c3c2)cc1 | Ba/F3 NPM-ALK | cell proliferation, [3H]-thymidine incorporation |  |  | 5.8
C[C@]1([N+](=O)[O-])C(=O)c2ccccc2O[C@@H]1CC(=O)Oc1ccccc1 | human Fibroblast | cell growth or viability, SRB |  | 96 h | > 100
Cc1nn(C)c(O)c1-c1nc2cc(Cl)c(Cl)cc2[nH]c1=O | HEL | cell growth or viability, resazurin |  | 72 h | 17.9
O=C(/C=C/c1ccc(-c2ccccc2)cc1)NC(=O)N[C@@H]1O[C@H](CO)[C@@H](O)[C@H](O)[C@H]1O | human T-lymphocyte | cell growth or viability |  | 72 h | 141
Cc1ccc(CC(=O)N(CCCn2ccnc2)c2nc3ccccc3s2)c(C)c1 | SW480 3D tumour organoids | cytotoxicity | 0.4% DMSO | 72 h, 2% Matrigel | 15.7
CC(C)c1cccc(C(C)C)c1[N+]#[C][Pd-]([Cl])([Cl])=[C](Nc1ccc(CN[C](NC(C)(C)C)=[Au][Cl])cc1)Nc1c(C(C)C)cccc1C(C)C | MRC5 | cell growth or viability |  |  | > 100
CC[C@H](C)[C@H](NC(=O)[C@@H]1CCCN1C(=O)[C@@H](NC(=O)[C@@H]1CCCN1C(=O)[C@H](CCCCN)NC(=O)[C@H](CCCCN)NC(=O)[C@H](CCCCN)NC(=O)[C@@H]1CCCN1C(=O)[C@@H](N)CCSC)[C@@H](C)O)C(=O)N[C@@H](CCC(N)=O)C(=O)N[C@@H](CC(C)C)C(=O)N[C@@H](CC(N)=O)C(=O)N1CCC[C@H]1C(=O)N[C@@H](CCCCNC(=O)CNC(=O)[C@H](CCCCN)NC(=O)[C@H](CCCNC(=N)N)NC(=O)[C@H](Cc1ccccc1)NC(=O)[C@H](CCCNC(=N)N)NC(=O)[C@H](CCCNC(=N)N)NC(=O)[C@H](CCCNC(=N)N)NC(=O)[C@H](CO)NC(=O)[C@H](Cc1ccc(O)cc1)NC(=O)[C@H](CO)NC(=O)[C@H](CC(C)C)NC(=O)[C@H](CCCNC(=N)N)NC(=O)[C@@H](N)CCCNC(=N)N)C(N)=O | HPAEC | ERK1/2 phosphorylation, inhibitor, Western blot |  | 0.5 h pre-incubation, serum-free medium, with: 1 ng/mL VEGF | 15.9
CC/C(=C(\c1ccc(O)cc1)c1ccc(OCCN(C)CCOCCOCCOCCOCCN(C)CCOc2ccc(/C(=C(/CC)c3ccccc3)c3ccc(O)cc3)cc2)cc1)c1ccccc1 | MCF7 (ER-positive) | cell growth |  | 96 h | 0.06
C=C[C@@]12COC(=O)C(=C)[C@@H]1[C@H]1OC(=O)C(=C)[C@@H]1[C@@H](OC(=O)OCCN(C)c1ccc([N+](=O)[O-])c3nonc13)C2 | JIMT-1 | cell growth or viability, MTT |  | 72 h | 10.3
CC(=O)c1cnc(N)nc1N1CC[C@H]1c1nn2ccc(Cl)c2c(=O)n1-c1ccccc1 | purified human B cells | cell proliferation |  | with: anti-IgM | 0.004
CC(C)(C)OC(=O)NCC(N)CN.[Cl][Pt][Cl] (stereo not shown) | KB 3-1 | cell growth or viability, ATP luminescence |  | 72 h | 16.7
CN1CCN(C(=O)N(CCCCCCC(=O)NO)c2ccc(-c3ccc4cnn(C)c4c3)cc2)CC1 | MM1.S | cell growth or viability, ATP luminescence |  | 72 h | 0.0388

SMILES | cell line | test | system | setting | IC50 [µM]
O=C(CCCCCCNC(=O)c1cc(C(=O)c2ccccc2)cn1Cc1ccc(F)cc1)NO | SiHa | cell growth or viability, resazurin |  | 72 h | 4.6
CC(=O)N[C@H](CCCNC(=N)N)C(=O)N[C@@H](CC(=O)N[C@H](Cc1ccccc1)C(N)=O)c1ccc2ccccc2c1 | BT-474 | cell growth or viability, ATP luminescence |  | 72 h | 3.65
COc1ccc2cc3[n+](cc2c1OCc1cn(Cc2ccc(Cl)cc2)nn1)CCc1cc2c(cc1-3)OCO2 | SMMC-7721 | cell growth or viability, MTT |  |  | 43.7
Clc1nc2ccccc2cc1-c1nc2ccccc2[nH]1 | BEL-7404 | cell growth or viability, MTT |  | 48 h | > 100
NCCNC(=O)c1ccc2[nH]c(/C(=N/Nc3ccc(F)cc3)c3ccc(O)cc3)nc2c1 | NCI-H441 | cell growth or viability, ATP luminescence |  | 72 h | 145
C1=[N+]2CCCC[N+]3=Cc4ccc5[n]4[Au-]23[n]2c1ccc2-c1nc2ccccc2nc1-5.F[P-](F)(F)(F)(F)F | CNS cancer cell lines |  |  | NCI60 panel mean | 10
N=C(N)NCCC[C@H](N)C(=O)NC(CC(=O)N[C@@H](Cc1ccccc1)C(=O)N[C@@H](CC(=O)O)C(=O)O)c1ccc2ccccc2c1 (stereo partly shown) | BT-474 | cell growth or viability, ATP luminescence |  | 72 h | 0.785
CCNc1cc2c(cc1C)C1(c3cc(C)c(NCC)cc3O2)c2ccccc2C(=O)N1N=Cc1c[c-]c(-c2ccccn2)cc1.Cc1c(C)c(-c2ccc(-c3ccccc3)cc2)[c-](C)c1C.[Cl-].[Ir+3] | HeLa human cancer cells | cell growth, MTT |  | 24 h | 18.7 ± 2.7
Clc1ccc2[nH]c(-c3cc4cc5c(cc4nc3Cl)OCO5)nc2c1 | BEL-7404 | cell growth or viability, MTT |  | 48 h | > 100
CN1CCCNC(=O)CC2(CCCCC2)CC(=O)NCCCN(C)CCCNc2cccc3c2C(=O)c2cccc(c2C3=O)NCCC1 | Ca9-22 | cell growth or viability, CCK-8 |  | 48 h | > 20
Cc1cc(C)c(N[C](NCc2cccc(N[C](Nc3c(C(C)C)cccc3C(C)C)=[Pd-]([Cl])([Cl])[C]#[N+]c3c(C(C)C)cccc3C(C)C)c2)=[Au][Cl])c(C)c1 | MRC5 | cell growth or viability |  |  | > 100
C#CCN(CC(=O)O[C@H]1[C@H](C)O[C@@H](O[C@H]2[C@H](N(C)C)[C@@H](O)[C@H](O[C@H]3[C@@H](CC=O)C[C@@H](C)[C@@H](O[C@H]4CC[C@H](N(C)C)[C@@H](C)O4)/C=C/C=C/C[C@@H](C)OC(=O)C[C@@H](O)[C@@H]3OC)O[C@@H]2C)C[C@@]1(C)O)C(=O)c1ccc(C(F)(F)F)cc1 | GES1 | cell growth or viability, CCK-8 |  | 72 h | 1.96
O=C(CCCc1ccc2c(c1)CCCC2)N[C@@H]1O[C@H](CO)[C@@H](O)[C@H](O)[C@H]1O | human T-lymphocyte | cell growth or viability |  | 72 h | > 250
N#Cc1cccc(-c2ccc(=O)n(Cc3cccc(-c4ncc(OCC5CCN(CCCCCCCCCC(=O)Nc6cccc7c6C(=O)N(C6CCC(=O)NC6=O)C7=O)CC5)cn4)c3)n2)c1 (stereo not shown) | EBC-1 | cell growth or viability, CCK-8 |  | 72 h | 0.0379
c1ccc(-c2nc(-c3cccnc3)[nH]c2-c2ccccc2)cc1 | BT-474 | cell growth or viability, SRB |  | 48 h | 57.6
CCc1ccc([C@H](C)CC(=O)NC(=O)N[C@@H]2O[C@H](COC(C)=O)[C@@H](OC(C)=O)[C@H](OC(C)=O)[C@H]2OC(C)=O)cc1 | human T-lymphocyte | cell growth or viability |  | 72 h | 41
CC(=O)Oc1ccc(/C=C/C(=O)Nc2nc(=O)n([C@@H]3O[C@H](C)[C@@H](OC(C)=O)[C@H]3OC(C)=O)cc2F)cc1OC(C)=O | BXPC-3 | cell growth or viability, MTT |  | 72 h | 31.6
CC1=C2[O][Ru-]([Cl])[O+]=C2C=CN1CCCCCCN1C=CC2=[O+][Ru-]([Cl])[O]C2=C1C.Cc1ccc(C(C)C)cc1.Cc1ccc(C(C)C)cc1 | 5637-oxo oxoplatin-resistant | crystal violet |  | 96 h | > 20
CC(=O)[O][Pt]1([O]C(C)=O)[O]C(=O)C(=O)[O]1.NC1CCCCC1N | five cancer cell lines | cytotoxicity |  | mean over panel | 33.2
CC/C(=C(/c1ccc(O)cc1)c1ccc(OCCN(C)CCOCCOCCOCCOCCOC)cc1)c1ccccc1 | MCF7 (ER-positive) | cell growth |  | 96 h | 0.4

Excerpt of the above:
SMILES | cell line | test | system | setting | IC50 [µM]
C#CCN(CC(=O)O[C@H]1[C@H](C)O[C@@H](O[C@H]2[C@H](N(C)C)[C@@H](O)[C@H](O[C@H]3[C@@H](CC=O)C[C@@H](C)[C@@H](O[C@H]4CC[C@H](N(C)C)[C@@H](C)O4)/C=C/C=C/C[C@@H](C)OC(=O)C[C@@H](O)[C@@H]3OC)O[C@@H]2C)C[C@@]1(C)O)C(=O)c1ccc(C(F)(F)F)cc1 | GES1 | cell growth or viability, CCK-8 |  | 72 h | 1.96
COCCOc1ccc(-c2ccc3[nH]c4ncc(/C=C/c5ccccc5)cc4c3c2)cc1 | Ba/F3 NPM-ALK | cell proliferation, [3H]-thymidine incorporation |  |  | 5.8
C[C@]1([N+](=O)[O-])C(=O)c2ccccc2O[C@@H]1CC(=O)Oc1ccccc1 | human Fibroblast | cell growth or viability, SRB |  | 96 h | > 100
